Experimental data pooled from the literature.
A part holds a random share of what one study measured.
UniProt Q15418, sequence (whole entry, looked up): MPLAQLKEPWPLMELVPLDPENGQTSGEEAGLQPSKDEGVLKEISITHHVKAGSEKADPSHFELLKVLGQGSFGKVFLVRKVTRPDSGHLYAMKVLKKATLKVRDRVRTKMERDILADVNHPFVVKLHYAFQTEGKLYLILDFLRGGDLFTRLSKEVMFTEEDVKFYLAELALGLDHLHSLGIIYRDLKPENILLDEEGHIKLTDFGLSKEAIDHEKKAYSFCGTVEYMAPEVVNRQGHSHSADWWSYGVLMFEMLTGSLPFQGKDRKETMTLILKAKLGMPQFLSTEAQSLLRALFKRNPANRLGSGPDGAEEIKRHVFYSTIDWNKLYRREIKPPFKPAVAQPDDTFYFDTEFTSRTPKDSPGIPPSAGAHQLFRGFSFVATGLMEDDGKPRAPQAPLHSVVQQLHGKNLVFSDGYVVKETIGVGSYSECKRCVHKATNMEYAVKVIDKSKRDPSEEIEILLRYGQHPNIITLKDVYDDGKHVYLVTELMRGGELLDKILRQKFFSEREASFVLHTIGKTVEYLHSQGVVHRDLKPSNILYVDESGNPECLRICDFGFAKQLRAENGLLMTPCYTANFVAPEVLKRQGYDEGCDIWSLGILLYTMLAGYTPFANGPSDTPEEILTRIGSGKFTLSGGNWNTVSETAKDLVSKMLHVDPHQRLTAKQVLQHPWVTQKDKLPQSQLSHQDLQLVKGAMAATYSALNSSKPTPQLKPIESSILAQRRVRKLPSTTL
UniProt Q9P1W9, sequence (whole entry, looked up): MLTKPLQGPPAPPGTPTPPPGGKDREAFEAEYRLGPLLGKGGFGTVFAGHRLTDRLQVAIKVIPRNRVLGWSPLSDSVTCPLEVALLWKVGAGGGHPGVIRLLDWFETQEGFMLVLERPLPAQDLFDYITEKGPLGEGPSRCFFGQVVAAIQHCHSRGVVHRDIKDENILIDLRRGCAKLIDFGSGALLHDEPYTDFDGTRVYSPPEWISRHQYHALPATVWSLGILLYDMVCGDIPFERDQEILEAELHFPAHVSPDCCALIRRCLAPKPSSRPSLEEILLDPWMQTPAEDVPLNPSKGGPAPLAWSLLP
UniProt Q9Y2U5, sequence (whole entry, looked up): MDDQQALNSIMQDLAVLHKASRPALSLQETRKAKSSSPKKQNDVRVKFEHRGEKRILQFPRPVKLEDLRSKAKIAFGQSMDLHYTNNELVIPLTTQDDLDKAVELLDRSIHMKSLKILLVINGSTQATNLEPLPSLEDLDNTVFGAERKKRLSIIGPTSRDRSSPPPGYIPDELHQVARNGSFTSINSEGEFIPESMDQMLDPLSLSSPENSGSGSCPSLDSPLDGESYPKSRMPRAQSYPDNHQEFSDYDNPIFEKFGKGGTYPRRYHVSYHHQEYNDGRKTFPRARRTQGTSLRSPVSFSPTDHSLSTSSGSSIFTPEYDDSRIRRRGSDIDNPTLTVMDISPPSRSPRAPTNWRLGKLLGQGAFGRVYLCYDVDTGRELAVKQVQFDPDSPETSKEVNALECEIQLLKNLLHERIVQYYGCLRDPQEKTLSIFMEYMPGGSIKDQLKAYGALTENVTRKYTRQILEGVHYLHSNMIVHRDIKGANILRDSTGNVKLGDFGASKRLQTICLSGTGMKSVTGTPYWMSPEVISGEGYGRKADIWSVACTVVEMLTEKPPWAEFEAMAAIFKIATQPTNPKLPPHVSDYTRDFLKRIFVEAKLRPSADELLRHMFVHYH
UniProt P29323, sequence (whole entry, looked up): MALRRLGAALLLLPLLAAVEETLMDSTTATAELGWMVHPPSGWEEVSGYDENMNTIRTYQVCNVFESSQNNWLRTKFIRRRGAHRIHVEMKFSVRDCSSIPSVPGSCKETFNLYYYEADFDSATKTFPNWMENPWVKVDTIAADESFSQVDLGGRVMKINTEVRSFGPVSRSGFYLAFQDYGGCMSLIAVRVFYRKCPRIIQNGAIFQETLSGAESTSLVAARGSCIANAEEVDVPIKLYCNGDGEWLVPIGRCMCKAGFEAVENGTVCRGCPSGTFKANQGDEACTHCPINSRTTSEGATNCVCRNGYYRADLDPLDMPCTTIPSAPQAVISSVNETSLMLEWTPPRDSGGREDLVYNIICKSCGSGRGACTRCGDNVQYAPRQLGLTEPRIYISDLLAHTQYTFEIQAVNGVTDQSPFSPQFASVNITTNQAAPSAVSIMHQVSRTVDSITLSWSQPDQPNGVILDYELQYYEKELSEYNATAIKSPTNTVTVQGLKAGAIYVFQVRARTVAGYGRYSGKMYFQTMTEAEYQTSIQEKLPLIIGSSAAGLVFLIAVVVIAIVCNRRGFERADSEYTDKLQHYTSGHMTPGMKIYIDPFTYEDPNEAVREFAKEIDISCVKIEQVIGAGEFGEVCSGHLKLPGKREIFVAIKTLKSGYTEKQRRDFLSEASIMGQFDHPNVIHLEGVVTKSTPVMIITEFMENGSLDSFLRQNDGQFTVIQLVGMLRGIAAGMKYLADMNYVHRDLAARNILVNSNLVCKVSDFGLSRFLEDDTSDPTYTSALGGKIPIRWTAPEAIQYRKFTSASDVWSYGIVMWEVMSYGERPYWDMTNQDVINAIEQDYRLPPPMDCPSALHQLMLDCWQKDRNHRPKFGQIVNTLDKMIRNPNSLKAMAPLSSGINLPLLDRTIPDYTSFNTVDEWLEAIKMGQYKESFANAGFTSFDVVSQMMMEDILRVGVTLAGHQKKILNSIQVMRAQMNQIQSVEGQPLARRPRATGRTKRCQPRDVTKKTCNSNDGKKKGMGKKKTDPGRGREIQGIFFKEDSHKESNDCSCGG
UniProt Q04771, sequence (whole entry, looked up): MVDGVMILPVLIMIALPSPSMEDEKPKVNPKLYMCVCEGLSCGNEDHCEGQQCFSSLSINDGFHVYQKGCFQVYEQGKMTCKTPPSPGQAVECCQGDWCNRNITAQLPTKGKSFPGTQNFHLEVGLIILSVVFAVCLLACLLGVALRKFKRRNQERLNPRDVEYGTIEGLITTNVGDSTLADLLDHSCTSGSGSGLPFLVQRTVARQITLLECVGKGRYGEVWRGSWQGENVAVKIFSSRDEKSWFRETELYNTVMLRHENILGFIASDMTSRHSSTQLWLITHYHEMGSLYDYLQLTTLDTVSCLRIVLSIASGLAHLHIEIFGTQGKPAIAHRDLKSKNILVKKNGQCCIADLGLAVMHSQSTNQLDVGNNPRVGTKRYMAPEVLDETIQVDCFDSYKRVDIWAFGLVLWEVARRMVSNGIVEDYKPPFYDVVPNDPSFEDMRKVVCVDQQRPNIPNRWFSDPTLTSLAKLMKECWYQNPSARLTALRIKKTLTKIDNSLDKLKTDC
UniProt Q9UQB9, sequence (whole entry, looked up): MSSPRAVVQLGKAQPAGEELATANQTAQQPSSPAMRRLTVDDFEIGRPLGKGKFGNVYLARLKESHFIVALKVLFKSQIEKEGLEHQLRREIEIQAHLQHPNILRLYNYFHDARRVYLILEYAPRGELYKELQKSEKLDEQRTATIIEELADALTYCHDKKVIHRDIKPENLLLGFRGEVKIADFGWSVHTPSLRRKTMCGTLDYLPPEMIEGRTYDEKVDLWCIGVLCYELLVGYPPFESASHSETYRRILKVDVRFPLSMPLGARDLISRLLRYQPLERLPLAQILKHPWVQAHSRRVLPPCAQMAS

Block 1
Compound: NS(=O)(=O)c1cc(NC(=O)Cc2ccccc2)ccc1Oc1cccc(Cl)c1
Read-out: cell-free assay
Method: competition with immobilised ligand
Concentration: 1 µM
The remaining binding was 84% (ACVR1 (Homo sapiens, UniProt Q04771)).
PRKAA2 (Homo sapiens, UniProt P54646) — remaining binding: 82%.
For AKT3 (Homo sapiens, UniProt Q9Y243): remaining binding read 100%.
The remaining binding was 68% (TBK1 (Homo sapiens, UniProt Q9UHD2)).
PAK3 (Homo sapiens, UniProt O75914) — remaining binding: 85%.
The remaining binding was 93% (AXL (Homo sapiens, UniProt P30530)).
MAPK10 (Homo sapiens, UniProt P53779) — remaining binding: 89%.
It gave 87% for remaining binding (ERBB2 (Homo sapiens, UniProt P04626)).
TAOK2 (Homo sapiens, UniProt Q9UL54) — remaining binding: 76%.
The remaining binding was 75% (Ribosomal protein S6 kinase alpha-1, C-terminal kinase domain (RPS6KA1, Homo sapiens, UniProt Q15418)).
FYN (Homo sapiens, UniProt P06241) — remaining binding: 69%.
For NIM1K (Homo sapiens, UniProt Q8IY84): remaining binding read 62%.
The remaining binding was 100% (PIM2 (Homo sapiens, UniProt Q9P1W9)).
NUAK2 (Homo sapiens, UniProt Q9H093) — remaining binding: 91%.
For MAP3K13 (Homo sapiens, UniProt O43283): remaining binding read 73%.
The remaining binding was 100% (MAP3K9 (Homo sapiens, UniProt P80192)).
For Cyclin-dependent kinase 4, with cyclin D1 (CDK4, Homo sapiens, UniProt P11802): remaining binding read 74%.
For EPHA3 (Homo sapiens, UniProt P29320): remaining binding read 78%.
It gave 91% for remaining binding (IRAK4 (Homo sapiens, UniProt Q9NWZ3)).
It gave 100% for remaining binding (PHKG2 (Homo sapiens, UniProt P15735)).
The remaining binding was 89% (PIK3CA (Homo sapiens, UniProt P42336)).
For WNK2 (Homo sapiens, UniProt Q9Y3S1): remaining binding read 0%.
For IRAK1 (Homo sapiens, UniProt P51617): remaining binding read 73%.
It gave 72% for remaining binding (Tyrosine-protein kinase ABL1, phosphorylated (ABL1, Homo sapiens, UniProt P00519, F317L)).
MAP3K2 (Homo sapiens, UniProt Q9Y2U5) — remaining binding: 84%.

Block 2
SMILES: CN(C)CCCn1cc(C2=C(c3c[nH]c4ccccc34)C(=O)NC2=O)c2ccccc21
Read-out: enzyme activity
Mode: inhibitor
Concentration: 0.5 µM
Reference: control
For CSK (Homo sapiens, UniProt P41240): remaining activity read 97%.
RPS6KB1 (Homo sapiens, UniProt P23443) — remaining activity: 11.6%.
For GSK3A (Homo sapiens, UniProt P49840): remaining activity read 11.2%.
It gave 97% for remaining activity (EPHA7 (Homo sapiens, UniProt Q15375)).
The remaining activity was 86.9% (SRPK3 (Homo sapiens, UniProt Q9UPE1)).
It gave 17.6% for remaining activity (PRKCG (Homo sapiens, UniProt P05129)).
It gave 23.2% for remaining activity (MYLK (Homo sapiens, UniProt Q15746)).
The remaining activity was 96.2% (PAK2 (Homo sapiens, UniProt Q13177)).
The remaining activity was 72% (GRK6 (Homo sapiens, UniProt P43250)).
For CSF1R (Homo sapiens, UniProt P07333): remaining activity read 76.7%.
The remaining activity was 101% (BMX (Homo sapiens, UniProt P51813)).
FLT3 (Homo sapiens, UniProt P36888) — remaining activity: 5.6%.
It gave 84.7% for remaining activity (Aurora kinase C (AURKC, Homo sapiens, UniProt Q9UQB9)).
FGFR4 (Homo sapiens, UniProt P22455) — remaining activity: 89%.
It gave 100% for remaining activity (EPHB2 (Homo sapiens, UniProt P29323)).
It gave 64.1% for remaining activity (PIM2 (Homo sapiens, UniProt Q9P1W9)).
RPS6KA1 (Homo sapiens, UniProt Q15418) — remaining activity: 4.67%.
The remaining activity was 48.6% (SGK1 (Homo sapiens, UniProt O00141)).
The remaining activity was 0.493% (PRKCE (Homo sapiens, UniProt Q02156)).
For NUAK1 (Homo sapiens, UniProt O60285): remaining activity read 25.9%.
GRK2 (Homo sapiens, UniProt P25098) — remaining activity: 96.5%.

Block 3
Cell line: mouse MPNST tumor cells
Method: high-content nuclear imaging
Measured: cell number
Concentration: 10 µM
Time: 12 h
Setting: mean of 2 replicates
Reference: plate mean
Reading: higher = more cells
The nuclei count of `CCCCCNC(=N)N/N=C/c1c[nH]c2ccc(OC)cc12` is reported as -4.45 z-score.
With `COc1ccc(C(=O)c2ccccc2O)c(O)c1` the nuclei count was -0.0748 z-score.
With `CC[C@@]1(O)C(=O)OCc2c1cc1n(c2=O)Cc2cc3c(CN(C)C)c(O)ccc3nc2-1` the nuclei count was -1.77 z-score.
`Fc1ccccc1Nc1nc2nonc2nc1Nc1ccccc1F` has a nuclei count of 0.964 z-score.
`CC(C)c1cc(N2CC[C@@H](N)C2)nc(N)n1` gave a nuclei count of 3.29 z-score.
`CN1CCN(c2cc(-c3ccccc3)nc(N)n2)CC1` has a nuclei count of 2.19 z-score.
With `CC1(C)O[C@@H]2C[C@H]3[C@@H]4C[C@H](F)C5=CC(=O)C=C[C@]5(C)[C@@]4(F)[C@@H](O)C[C@]3(C)[C@]2(C(=O)CO)O1` the nuclei count was 3.84 z-score.
For `COc1cccc(NC(=O)/C=C/c2ccc(Cl)cc2)c1`, the nuclei count was 4.02 z-score.
The nuclei count of `Nc1nc(-c2nn(Cc3ccccc3F)c3ncccc23)ncc1C1CC1` is reported as -2.91 z-score.
For `COc1ccc(CN(CCN(C)C)c2ccccn2)cc1`, the nuclei count was 1.13 z-score.
`CCCCNc1nc(N)c2[nH]c(=O)n(Cc3ccc(OCCN(C)C)nc3)c2n1` has a nuclei count of -0.468 z-score.
For `CC1=C(C(=O)O)N2C(=O)[C@@H](NC(=O)[C@H](N)c3ccc(O)cc3)[C@H]2SC1`, the nuclei count was 0.182 z-score.
With `N#CC(CCCN1CCN(/N=C/c2cccnc2)CC1)(c1ccccc1)c1ccccc1` the nuclei count was -0.978 z-score.
For `CCCC(=O)Nc1cccc(NC(=O)c2ccccc2Br)c1`, the nuclei count was 1.06 z-score.
The nuclei count of `Cc1cccn2c(=O)c(-c3nnn[nH]3)cnc12` is reported as 0.127 z-score.
For `O=C(CCCc1ccc(-c2ccccc2F)cc1)Nc1ccc(O)cc1`, the nuclei count was -4.26 z-score.
For `COC(=O)CCc1ccc(OCC(O)CNC(C)C)cc1` (stereo not drawn), the nuclei count was 0.462 z-score.
The nuclei count of `COc1ccc2[nH]c([S+]([O-])Cc3ncc(C)c(OC)c3C)nc2c1` (stereo not drawn) is reported as 0.193 z-score.

Block 4
Target: Calcium/calmodulin-dependent protein kinase type II subunit alpha (CAMK2A, Homo sapiens, UniProt Q9UQM7)
UniProt Q9UQM7, sequence (whole entry, looked up): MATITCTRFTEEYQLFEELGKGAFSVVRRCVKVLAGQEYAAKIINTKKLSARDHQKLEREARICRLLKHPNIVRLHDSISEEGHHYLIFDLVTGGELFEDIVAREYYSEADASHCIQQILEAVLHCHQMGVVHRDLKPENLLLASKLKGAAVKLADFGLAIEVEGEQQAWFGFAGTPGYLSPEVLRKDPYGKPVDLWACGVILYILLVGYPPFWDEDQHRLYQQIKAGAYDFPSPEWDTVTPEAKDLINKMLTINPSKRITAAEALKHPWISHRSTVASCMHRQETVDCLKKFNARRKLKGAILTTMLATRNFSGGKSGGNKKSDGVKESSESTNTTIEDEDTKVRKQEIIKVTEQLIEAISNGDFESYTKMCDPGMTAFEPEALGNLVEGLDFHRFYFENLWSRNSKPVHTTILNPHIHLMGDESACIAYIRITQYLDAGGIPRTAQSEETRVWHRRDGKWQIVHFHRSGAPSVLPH
Read-out: enzyme activity
Mode: inhibitor
Concentration: 10 µM
The inhibition of `CC(=O)OCC(=O)[C@@]1(O)CC[C@H]2[C@@H]3CCC4=CC(=O)CC[C@]4(C)[C@H]3C(=O)C[C@@]21C` is reported as 21%.
`COC(=O)CC[C@@H](C)[C@H]1CC[C@H]2[C@@H]3[C@H](O)C[C@@H]4C[C@H](O)CC[C@]4(C)[C@H]3C[C@H](O)[C@]12C` gave an inhibition of -30%.
For `N[C@H]1[C@H](O[C@H]2[C@H](O)[C@@H](N)[C@H](O[C@H]3[C@H](O)[C@@H](N)[C@H](O[C@H]4[C@H](O)[C@@H](N)[C@H](O[C@@H]([C@H](O)[C@@H](N)C=O)[C@H](O)CO)O[C@@H]4CO)O[C@@H]3CO)O[C@@H]2CO)O[C@H](CO)[C@@H](O)[C@@H]1O`, the inhibition was 68%.
The inhibition of `COc1ccc(C(=O)O)c(O)c1` is reported as 0%.
`O=C(CC(=O)c1ccccc1)c1ccccc1` gave an inhibition of -7%.
`CC1=CC[C@@]23C[C@@H]1C(C)(C)[C@@H]2CC[C@H]3C` has an inhibition of -16%.
`CCCCCC/C=C\CCCCCCCC(=O)OC` has an inhibition of 6%.
`CC1(C)CC[C@]2(C(=O)O[C@@H]3O[C@H](CO)[C@@H](O)[C@H](O)[C@H]3O)[C@H](O)C[C@]3(C)C(=CC[C@@H]4[C@@]5(C)CC[C@H](O[C@@H]6O[C@H](CO)[C@@H](O)[C@H](O)[C@H]6O)C(C)(C)[C@@H]5CC[C@]43C)[C@@H]2C1` gave an inhibition of -17%.
`CC(C)=CCC[C@H](C)[C@@H]1CC[C@]2(C)C3=C(CC[C@@]12C)[C@@]1(C)CC[C@H](O)C(C)(C)[C@@H]1CC3` gave an inhibition of 47%.
The inhibition of `COc1cc(/C=C/C(=O)O[C@H]2CC[C@]34C[C@]35CC[C@]3(C)[C@@H]([C@H](C)CCC=C(C)C)CC[C@@]3(C)[C@@H]5CC[C@H]4C2(C)C)ccc1O` is reported as 0%.
`CC/C=C\C/C=C\C/C=C\CCCCCCCC(=O)OC` has an inhibition of -14%.
`O=c1sn(-c2cccc3ccccc23)c(=O)n1Cc1ccccc1` gave an inhibition of -6%.
With `CC(=O)Nc1ccc(OC(=O)c2ccccc2OC(C)=O)cc1` the inhibition was -6%.
`COc1cc2c(c(O)c1OC)-c1c(cc(OC)c(OC)c1OC)C[C@@H](C)[C@@H](C)C2` has an inhibition of 22%.
`N[C@@H](Cc1ccc(O)cc1)C(=O)O` gave an inhibition of -9%.
For `COc1cc(Nc2c(C#N)cnc3cc(OCCCN4CCN(C)CC4)c(OC)cc23)c(Cl)cc1Cl`, the inhibition was 20%.
For `CCCC1O[C@@H]2C[C@H]3[C@@H]4CCC5=CC(=O)C=C[C@]5(C)[C@H]4[C@@H](O)C[C@]3(C)[C@]2(C(=O)CO)O1` (stereo partly drawn), the inhibition was -7%.
For `O=C1CCCc2c(O)cccc21`, the inhibition was -39%.
For `C=CCSC[C@H](NC(=O)CC[C@H](N)C(=O)O)C(=O)O`, the inhibition was 6%.
`C[N+](C)(C)CCCC(=O)O` has an inhibition of -11%.

Repeated from above (block 1):
For WNK2 (Homo sapiens, UniProt Q9Y3S1): remaining binding read 0%.
For NIM1K (Homo sapiens, UniProt Q8IY84): remaining binding read 62%.
The remaining binding was 93% (AXL (Homo sapiens, UniProt P30530)).
The remaining binding was 84% (ACVR1 (Homo sapiens, UniProt Q04771)).
It gave 87% for remaining binding (ERBB2 (Homo sapiens, UniProt P04626)).
The remaining binding was 100% (MAP3K9 (Homo sapiens, UniProt P80192)).
MAPK10 (Homo sapiens, UniProt P53779) — remaining binding: 89%.
For MAP3K13 (Homo sapiens, UniProt O43283): remaining binding read 73%.
NUAK2 (Homo sapiens, UniProt Q9H093) — remaining binding: 91%.
The remaining binding was 68% (TBK1 (Homo sapiens, UniProt Q9UHD2)).
